Experimental data of several laboratories.
Lines come from different studies, so protocols differ. “And” joins repeats or separate records; there may be more than shown. ± marks the error that the study gave.

Compound	assay	system	conditions	scale	endpoint	result
O=C(NS(=O)(=O)c1cccs1)c1cc2ccccc2n1Cc1ccc(Br)c2ccccc12		Sprague-Dawley rat, male, ankle joint tissue	oral, 2 mg/kg, 24 h		tissue concentration	660 ng/g
CN(O)C(=O)CCC(=O)NCCCN(CCCCN(CCCNC(=O)CCC(=O)N(C)O)C(=O)CCC(=O)N(C)O)C(=O)CCC(=O)N(C)O.[89Zr]	radio-TLC	aqueous buffer	3 d, pH 8.5, 37 °C, 89Zr-labelled complex, together with: DTPA 1000-fold excess		intact complex	99.2 ± 0.7%
COc1ccc(Nc2nc(Nc3ccc(OCCOCCOCC[18F])cc3)ncc2Br)cc1		ICR mice, S180 tumour	intravenous, 370 kBq, 30 min	reference: tumour over blood	uptake ratio	1.34
CCCC[C@H]1C(=O)N(C)[C@@H](CCCC)C(=O)N[C@@H](CCCCNC(=S)Nc2ccc(CN3CCN(CC(=O)O)CCN(CC(=O)O)CC3)cc2)C(=O)N[C@H](C(=O)NCC(N)=O)CSCC(=O)N[C@@H](Cc2ccc(O)cc2)C(=O)N(C)[C@@H](C)C(=O)N[C@@H](CC(N)=O)C(=O)N2CCC[C@H]2C(=O)N[C@@H](Cc2cnc[nH]2)C(=O)N[C@@H](CCC(=O)O)C(=O)N2C[C@H](O)C[C@H]2C(=O)N[C@@H](Cc2c[nH]c3ccccc23)C(=O)N[C@@H](CO)C(=O)N[C@@H](Cc2cn(CC(=O)O)c3ccccc23)C(=O)N1C [fluorine-18 labelled]		T24 subcutaneous xenograft, NSG mouse, tumour	intravenous, 60 min		tumour uptake	6.16 ± 3.28 %ID/g
O=C(Nc1cnccc1-c1ccc([18F])cc1)c1ccnc(NC(=O)C2CC2)c1		FVB/NJ mice (both sexes), cerebellum	intravenous, dose not given, 120 min		SUV	0.05
Cc1nc(N)nc2c1C(=O)N[C@@H](c1ccc(F)cc1-c1cccc(O[11CH3])n1)C2	ex vivo biodistribution	healthy mice, pancreas	60 min post-injection, baseline, vehicle pre-treatment		SUV	2.5 ± 0.3
CN1CCC[C@]1(C)/C=C/S(=O)(=O)NC(=O)Nc1c2c(cc3c1CCC3)CCC2	measured: nasopharyngitis, not related	human	oral, 12.5 mg twice daily, 14 days, multiple ascending dose		subjects with adverse event	0%
COc1ccnc(C(=O)N[C@H]2COC(=O)[C@H](Cc3ccccc3)[C@@H](OC(=O)C(C)C)[C@H](C)OC2=O)c1O		Swiss Lake sand sediment, aerobic dark	20 °C		DT50 water	2.57 days
CC[C@H](C)[C@@H]1NC(=O)[C@H](Cc2ccc(O)cc2)NC(=O)CCCSC[C@@H](C(=O)N(CC(=O)N[C@@H](CC(C)C)C(=O)NCC(N)=O)Cc2ccc(F)cc2)NC(=O)[C@H](CC(N)=O)NC(=O)[C@H](CCC(N)=O)NC1=O		human	intranasal, 400 µg repeated doses		serious adverse events	0%
CCCC[C@H](NC(=O)CNC(=O)CNC(=O)[C@H](CCCCNC(=O)[C@H](CC(N)=O)NC(=O)C(C)c1ccc(CC(C)C)cc1)NC(=O)CN1CCN(CC(=O)O)CCN(CC(=O)O)CCN(CC(=O)O)CC1)C(=O)N[C@H]1CC(=O)NCCCC[C@@H](C(N)=O)NC(=O)[C@H](Cc2c[nH]c3ccccc23)NC(=O)[C@H](CCCNC(=N)N)NC(=O)[C@@H](Cc2ccccc2)NC(=O)[C@H](Cc2c[nH]cn2)NC1=O (stereo partly shown) [lutetium-177 labelled]		C57 mice, tumour	2 h	reference: kidney	tumour-to-tissue ratio	0.85
C=Cc1c(C)c2cc3nc(c(CC(=O)OCCOCCOCCOC)c4[nH]c(cc5nc(cc1[nH]2)C(C)=C5CC)c(C)c4C(=O)OCCOCCOCCOC)[C@@H](CCC(=O)OCCOCCOCCOC)[C@@H]3C	LC-MS	methanol-water 9:1	5 min, pH 8.0		compound loss	7%
CC(=O)N[C@H](CC(=O)O)C(=O)N[C@H](Cc1c[nH]c2ccccc12)C(=O)N[C@H](Cc1ccccc1)C(=O)N[C@H](CCCCN)C(=O)N[C@H](C)C(=O)N[C@H](Cc1ccccc1)C(=O)N[C@H](Cc1ccc(O)cc1)C(=O)N[C@H](CC(=O)O)C(=O)N[C@H](CCCCN)C(=O)N[C@@H](C(=O)N[C@H](C)C(=O)N[C@H](CCC(=O)O)C(=O)N[C@H](CCCCN)C(=O)N[C@H](Cc1ccccc1)C(=O)N[C@H](CCCCN)C(=O)N[C@H](CCC(=O)O)C(=O)N[C@H](C)C(=O)N[C@H](Cc1ccccc1)C(N)=O)C(C)C		human, plasma	oral, 500 mg daily, 0.5 h post-dose, day 13		plasma concentration	589 ng/mL
Cc1cc(-c2ccc(C(=O)[C@@H]3CCCC[C@H]3C(=O)Nc3cnn4c3C(=O)NCC4)cc2)[nH]n1		human, faeces	oral, 200 mg, 288-312 h	reference: dose	radioactivity recovery per interval	0.06%
CCCCCCCOc1ccc(CC[C@](N)(CO)COP(=O)(O)O)cc1C(F)(F)F		healthy human males, plasma	oral, 0.75 mg, day 21		half-life	385 h
CC(C)OCCOCc1ccc(OCC(O)CN(N=O)C(C)C)cc1 (stereo not shown)	duplex sequencing, measured: mutation frequency	NMRI mouse, liver	oral, 845 mg/kg/day, 4 weeks	reference: vehicle	fold change	4.17
CC(C(=O)O)n1nc(Cn2cc3cc(OCC[18F])c(Cl)cc3n2)c2ccccc2c1=O (racemic)		rat, bone	5 min		tracer uptake	0.12 %ID/g
OC1(C(F)(F)F)CCN(c2nc(Nc3ccnc(C(F)(F)F)c3)nc(-c3cccc(C(F)(F)F)n3)n2)C1 (stereo not shown)		monkey, plasma	oral, 3 mg/kg		Tmax	6 ± 1.26 h
CC(C)C[C@H](NC(=O)[C@@H](CCCCNC(=O)[C@@H](Cc1ccccc1)NC(=O)CCCCCCCNC(=O)CN1CCN(CC(=O)O)CCN(CC(=O)O)CCN(CC(=O)O)CC1)NC(=O)[C@H](Cc1ccc(O)cc1)NC(=O)[C@H](CO)NC(=O)[C@H](Cc1c[nH]c2ccccc12)NC(=O)[C@H](Cc1c[nH]cn1)NC(=O)[C@@H]1CCC(=O)N1)C(=O)N[C@@H](CCCNC(=N)N)C(=O)N1CCC[C@H]1C(=O)NCC(N)=O [indium-111 labelled]		male athymic nude mice, DU-145 prostate cancer xenograft, tumour	intravenous, 0.037 MBq, 0.5 h	reference: tumour over blood	tumour-to-tissue ratio	0.77
C=CC(=O)Nc1cc(Nc2nccc(-c3cn(C)c4ccccc34)n2)c(OC)cc1N(C)CCNC	storage stability	human plasma	5 h, on ice, medium QC level		recovery	94.9%
COc1cccc(OC)c1-c1cc(C(=O)NC2(C(=O)O)C3CC4CC(C3)CC2C4)nn1-c1ccc(C(=O)N(C)CCOCCOCCN(C)C(=O)[C@H](CCCCNC(=O)[C@H](CC(C)C)NC(=O)C2OC2C(=O)O)NC(=O)CN2CCN(CC(=O)[O-])CCN(CC(=O)[O-])CCN(CC(=O)[O-])CC2)cc1C(C)C.[177Lu+3] (mixture of isomers)		mouse, HT-29 xenograft	168 h post injection, biodistribution	reference: tumour over heart uptake	tumour-to-heart ratio	6.58

Compound	assay	system	conditions	scale	endpoint	result
COCC1CN(C2CCN(c3cc(OC)c(Nc4ncc(Br)c(Nc5ccc6c(c5P(C)(C)=O)OCCO6)n4)cc3C)CC2)C1		human, plasma	oral, 90 mg, multiple doses, patients		AUC	21200 ng·h/mL
CC(C)(c1cc(Br)c(O)c(Br)c1)c1cc(Br)c(O)c(Br)c1		cow whole milk	2000 nM	reference: milk fat over skim milk	milk fat partition ratio	21.5
CCC1CNC(CC)CN(C(C(=O)[O-])c2ccc(C(=O)[O-])cc2)C(CC)CN(CC(=O)[O-])C(CC)CN1.[Mn+2] (stereo not shown)	ICP-MS	BALB/c mouse, brain	intravenous, 0.05 mmol/kg, 5 min, without anaesthesia		Mn content	0.65 ± 0.02 µg/g
CCCCN1C(=O)c2cccc3c(NCCN4CCOCC4)ccc(c23)C1=O		methanol			fluorescence quantum yield	0.08
COc1cccc(OC)c1-c1cc(C(=O)NC2(C(=O)O)C3CC4CC(C3)CC2C4)nn1-c1ccc(C(=O)N(C)CCCN(C)C(=O)[C@H](CCCCNC(=O)[C@H](CC(C)C)NC(=O)C2OC2C(=O)O)NC(=O)CN2CCN(CC(=O)[O-])CCN(CC(=O)[O-])CCN(CC(=O)[O-])CC2)cc1C(C)C.[177Lu+3] (mixture of isomers)		mouse, HT-29 xenograft	4 h post injection, biodistribution	reference: tumour over heart uptake	tumour-to-heart ratio	11.1
CNc1nc(N)nc2c1ncn2C1OC(CO)C(O)C1(C)F (stereo not shown)		healthy adult humans, plasma	oral, 550 mg once daily, day 6, fasted, given alone		Cmax, arithmetic mean	945 ng/mL
C#CCNC(=O)C(CC(C)(C)F)NC(c1ccc(-c2ccc(S(C)(=O)=O)cc2)cc1)C(F)(F)F (stereo not shown)		MES buffer	100 µM, 23 h, pH 5.5, 37 °C, together with: cysteine 10 mM		cysteine adduct formation	< 1%
CN1CCC[C@]1(C)/C=C/S(=O)(=O)NC(=O)Nc1c2c(cc3c1CC(O)C3)CCC2 (stereo partly shown)		human, plasma	oral, 50 mg twice daily of parent drug, day 14, metabolite of dosed drug		Tmax at first steady-state dose	4 h
C=CC(=O)Nc1cc(Nc2nccc(-c3cn(C4CC4)c4ccccc34)n2)c(OC)cc1N(C)CCNC	freeze-thaw stability	rat plasma	80 ng/mL, three freeze-thaw cycles	reference: nominal concentration	relative error	12.4%
[123I]c1ccc2nc(-c3ccc(-n4ccnn4)nc3)cn2c1		male Wistar rat, spleen	intravenous, 4 MBq, 6 h		tracer uptake	0.062 %ID/g
C=CC(=O)Nc1cc(Nc2nccc(-c3c[nH]c4ccccc34)n2)c(OC)cc1N(C)CCN(C)C	storage stability	human plasma	5 h, on ice, medium QC level		recovery	90.2%
O=C(OC(C(F)(F)F)C(F)(F)F)N1CCC(CNS(=O)(=O)c2ccc(Cl)cc2)CC1		male SCID mouse, brain	oral, 30 mg/kg		Cmax	11100 ng/mL
Cc1cc(C)n(CCN(CCN)CCCCCCNC(=O)[C@@H](N)Cc2c[nH]cn2)n1.[99Tc+].[C-]#[O+].[C-]#[O+].[C-]#[O+]		BALB/c nude mice A549 xenograft	intravenous, 4 h	reference: tumour over bone	tumour-to-tissue ratio	5.4
C=C(NC(=O)c1csc(-c2nc3c(cc2O)-c2nc(cs2)C(=O)NC(C(C)O)C(=O)NC(=C(C)OC)c2nc(cs2)C(=O)NC2c4nc(cs4)C(=O)NC(COC(=O)c4c5c6c(cccc6n4O)COC(=O)C(OC4CC(C)(O)C(N(C)C)C(C)O4)C2OC5)c2nc-3cs2)n1)C(N)=O (stereo not shown)		Sprague-Dawley rat, both sexes, plasma	intravenous infusion, 6 mg/kg, multiple doses, day 7		Vz/F	38.8 L/kg
O=C(CCc1cn(CCOCCOCCOCC[18F])nn1)Nc1ccc(-c2nnc(-c3ccccn3)nn2)nc1		BALB/c nude mouse, LS174T xenograft	intravenous, dose not given, 1 h, together with: CC49-TCO pretargeting		tumour to control tumour ratio	1
COC(=O)[C@@]1(C(C)C)C=C(C(=O)Nc2cccc(C(=O)Nc3ccc(Nc4nccc(-c5cccnc5)n4)c(C)c3)c2)C(=O)CC1		rat, plasma	1 µM, 120 min		compound remaining	71.2%
O=C(c1ccccc1)N1C(c2ccc(OCC3CCN(CCCF)C3)cc2)c2ccc(O)cc2CC12CC2 (stereo not shown)		C57BL/6J mouse, plasma	oral, 25 mg/kg		MRT(0-inf)	2.99 h and 4.48 h
O=C([O-])CN1CCN(CC(=O)[O-])CCN(C(CO)C(O)CO)CCN(CC(=O)[O-])CC1.[Dy+3] (stereo not shown)		female cynomolgus monkey, plasma	intravenous, dose not given		elimination half-life	1.09 h
Cc1nn(-c2nc3c(F)cc(F)cc3s2)c(O)c1C(c1ccc(C(F)(F)F)cc1)c1c(C)nn(-c2nc3c(F)cc(F)cc3s2)c1O		ICR mouse, plasma	intraperitoneal, 10 mg/kg		AUMC(0-inf) observed	205000 h²·ng/mL and 361000 h²·ng/mL and 307000 h²·ng/mL
CNCc1ccc(-c2cc(=O)c3ccc4[nH]c(C(F)(F)F)nc4c3o2)cc1		ICR mice, plasma	oral, 5 mg/kg		t1/2	~4.09 h

A few entries again:
Compound	assay	system	conditions	scale	endpoint	result
Cc1cc(-c2ccc(C(=O)[C@@H]3CCCC[C@H]3C(=O)Nc3cnn4c3C(=O)NCC4)cc2)[nH]n1		human, faeces	oral, 200 mg, 288-312 h	reference: dose	radioactivity recovery per interval	0.06%
CCCCCCCOc1ccc(CC[C@](N)(CO)COP(=O)(O)O)cc1C(F)(F)F		healthy human males, plasma	oral, 0.75 mg, day 21		half-life	385 h
O=C(CCc1cn(CCOCCOCCOCC[18F])nn1)Nc1ccc(-c2nnc(-c3ccccn3)nn2)nc1		BALB/c nude mouse, LS174T xenograft	intravenous, dose not given, 1 h, together with: CC49-TCO pretargeting		tumour to control tumour ratio	1
C=CC(=O)Nc1cc(Nc2nccc(-c3c[nH]c4ccccc34)n2)c(OC)cc1N(C)CCN(C)C	storage stability	human plasma	5 h, on ice, medium QC level		recovery	90.2%
COc1cccc(OC)c1-c1cc(C(=O)NC2(C(=O)O)C3CC4CC(C3)CC2C4)nn1-c1ccc(C(=O)N(C)CCCN(C)C(=O)[C@H](CCCCNC(=O)[C@H](CC(C)C)NC(=O)C2OC2C(=O)O)NC(=O)CN2CCN(CC(=O)[O-])CCN(CC(=O)[O-])CCN(CC(=O)[O-])CC2)cc1C(C)C.[177Lu+3] (mixture of isomers)		mouse, HT-29 xenograft	4 h post injection, biodistribution	reference: tumour over heart uptake	tumour-to-heart ratio	11.1
